Published values of several laboratories.
Positions count from the first letter of the parent shown. Numbers after ± are the reported error.
icaR full length assumed: icaR full length assumed (Staphylococcus epidermidis, UniProt Q5HKQ1)
Chain of UniProt Q5HKQ1 (whole entry, looked up): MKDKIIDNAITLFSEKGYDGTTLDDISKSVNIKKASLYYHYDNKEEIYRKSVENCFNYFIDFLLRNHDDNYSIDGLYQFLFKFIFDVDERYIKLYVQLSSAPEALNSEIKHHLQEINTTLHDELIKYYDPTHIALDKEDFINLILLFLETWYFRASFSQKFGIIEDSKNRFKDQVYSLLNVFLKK
mwoIR full length assumed S310E: mwoIR full length assumed S310E (Methanothermobacter wolfeii, UniProt O59646)
P1: ELMO1 C-terminal region 482-727; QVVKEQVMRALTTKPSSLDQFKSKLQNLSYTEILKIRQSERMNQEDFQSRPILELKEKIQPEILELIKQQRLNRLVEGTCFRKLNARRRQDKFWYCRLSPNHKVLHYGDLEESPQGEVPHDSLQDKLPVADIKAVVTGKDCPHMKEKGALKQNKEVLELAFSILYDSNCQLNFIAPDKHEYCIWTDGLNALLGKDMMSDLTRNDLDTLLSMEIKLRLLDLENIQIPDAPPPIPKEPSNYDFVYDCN; partner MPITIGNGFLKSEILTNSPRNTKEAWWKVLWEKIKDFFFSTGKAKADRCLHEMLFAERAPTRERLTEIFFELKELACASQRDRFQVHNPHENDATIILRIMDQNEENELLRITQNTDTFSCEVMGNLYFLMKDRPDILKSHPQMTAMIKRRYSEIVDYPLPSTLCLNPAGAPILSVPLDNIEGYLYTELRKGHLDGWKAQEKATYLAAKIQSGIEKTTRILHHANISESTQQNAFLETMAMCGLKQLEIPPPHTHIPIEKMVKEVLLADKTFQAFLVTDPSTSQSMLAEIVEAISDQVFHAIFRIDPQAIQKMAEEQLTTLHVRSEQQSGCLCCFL

CGTAATCTGCAGGCATGGTGAATTT (ssDNA)  binding (gene 4 protein primase domain, 1-271 K122A (Escherichia phage T7, UniProt P03692); SPR; single-stranded DNA): no binding
GATTAGCATATGCTTTACAACCTAACTA (dsDNA)  binding (icaR full length assumed; EMSA; double-stranded DNA, one strand shown): no binding
GACAGTGCCATCTCGGCGACAGT (dsDNA)  Kd (mwoIR full length assumed S310E; filter binding; double-stranded DNA, one strand shown; added: Ca2+ 10 mM): 17.8 ± 1.7 nM
CGTAATCTGCAGGCATGGTCAATTT (ssDNA)  binding (gene 4 protein RNA polymerase domain, 64-271 (Escherichia phage T7, UniProt P03692); SPR; single-stranded DNA; added: ATP 0.2 mM, CTP 0.2 mM): no binding
GACAGTGCAATCTCTGCGACAGT (dsDNA)  Kd (mwoIR full length assumed S310E; filter binding; double-stranded DNA, one strand shown; added: Ca2+ 10 mM): 29.7 ± 13.1 nM
P1 K139D K145D K147D  relative binding (SifA (Salmonella); GST pull-down; read off a plot, added: GST-SifA 10 µg, His-ELMO1-CT 5.0 µg; relative to: unchanged protein, higher = more binding): 0.48
GACAGTGCTATCTCAGCGACAGT (dsDNA)  Kd (mwoIR full length assumed S310R (Methanothermobacter wolfeii, UniProt O59646); filter binding; double-stranded DNA, one strand shown; added: Ca2+ 10 mM): 26.2 ± 2.7 nM
ACAACCTAACTAACGTTAGTTAGGTTGT (dsDNA)  binding (icaR full length assumed; EMSA; double-stranded DNA, one strand shown): binds

For quick reference, copied from above:
GACAGTGCTATCTCAGCGACAGT (dsDNA)  Kd (mwoIR full length assumed S310R (Methanothermobacter wolfeii, UniProt O59646); filter binding; double-stranded DNA, one strand shown; added: Ca2+ 10 mM): 26.2 ± 2.7 nM
